Earlier results as cited in several papers.
± gives the spread as reported.

Molecule	target or system	assay	test system	conditions	endpoint	result
CC(C)(/C=C(\C#N)C(=O)N1CCC[C@@H](n2nc(-c3ccc(Oc4ccccc4)cc3F)c3c(N)ncnc32)C1)N1CCN(C2COC2)CC1			human	600 mg once daily	half-life	3.9 h
CCOc1cc(C(C)(C)C)ccc1C1=N[C@@](C)(c2ccc(Cl)cc2)[C@@](C)(c2ccc(Cl)cc2)N1C(=O)N1CCN(CCCS(C)(=O)=O)CC1			relapsed/refractory AML patients	dose not given, phase I trial	response rate	~25%
COc1ccc(C[C@H](NC(=O)[C@H](C)NC(=O)CN2CCOCC2)C(=O)N[C@@H](Cc2ccccc2)C(=O)C2(C)CO2)cc1 (stereo in doubt)	HeLa	cytotoxicity			CC50	0.35 ± 0.143 µM
O=C(Nc1cccc2c(=O)cc(-c3nnn[nH]3)oc12)c1ccc(OCCCCc2ccccc2)cc1					logP	4.2
CC(C)C[C@H](NC(=O)[C@H](Cc1ccccc1)NC(=O)c1cnccn1)B(O)O	20S proteasome (Plasmodium falciparum, UniProt A0A5K1K7U1+Q8IJT1)	inhibitor		literature value	IC50	0.0068 ± 0.0003 µM
COc1cc(C(=O)NS(=O)(=O)c2ccccc2C)ccc1Cc1cn(C)c2ccc(NC(=O)OC3CCCC3)cc12	HEK293	VRAC current, inhibitor		hypotonic swelling-activated	maximal inhibition	~100%
medroxyprogesterone	Cryptosporidium parvum	HTS		concentration not given	activity	inactive
Cc1cc(C)c(C)c(S(=O)(=O)Nc2ccc(N3CC[C@H](C(=O)O)C3)c3ccccc23)c1C	ARE	luciferase reporter gene, activator			EC50	~40 µM
C[C@H]1CN(C2COC2)CCN1c1ccc(Nc2cc(-c3ccnc(N4CCn5c(cc6c5CC(C)(C)C6)C4=O)c3CO)cn(C)c2=O)nc1			human	200 mg once daily	AUC(0-last)	2050 ng·h/mL
